Measured values gathered from unrelated publications.
Several values in a cell are separate wells, animals, samples, runs or records. ± gives the spread as reported.

COc1ccc2c(c1)[C@]13CCCC[C@@H]1[C@H](C2)N(C)CC3  plasma concentration (C57BL/6 mice, plasma; oral, 50 µg/g, 30 min): 0.848 µg/mL and 2.75 µg/mL and 0.327 µg/mL and 0.707 µg/mL and 0.288 µg/mL
Cc1ncc2n1-c1ccc(Cl)cc1C(c1ccccc1F)=NC2O (stereo not drawn)  plasma concentration (wild-type mice, plasma; 500 mg/kg, 14 days, added: midazolam 0.3 mg/kg iv): not detected
CN(C)C1(CNC(=O)c2ccc3c(c2)CCN3C(=O)c2ccccc2)CCOCC1  plasma concentration (male C57BL/6 mice; intraperitoneal, 50 mg/kg, 30 min): 2.3 µg/mL
CCCc1cc(O)c(C/C=C(\C)CCC=C(C)C)c(O)c1  plasma concentration (LC-MS/MS; Scn1a+/− mice, plasma; intraperitoneal, 30 mg/kg, after hyperthermia protocol): 1.5 ± 0.4 µg/mL
O=C1c2c(O)c(=O)ccn2N([C@@H]2c3ccccc3SCc3c2ccc(F)c3F)[C@@H]2COCCN12  plasma concentration (BALB/c mice, plasma; oral, 15 mg/kg baloxavir marboxil, 6 h): 0.041 µg/mL
CCCCCc1cc(O)c(C/C=C(\C)CCC=C(C)C)c(O)c1  plasma concentration (LC-MS/MS; Scn1a+/− mice, both sexes, plasma; intraperitoneal, 30 mg/kg, after hyperthermia protocol): 1.1 ± 0.1 µg/mL
CCN(CC)CCCC[C@H](NC(=O)[C@H](CC(C)C)NC(=O)[C@H](C)NC(=O)[C@H](Cc1ccccc1)NC(=O)c1ccc(C(C)(C)C)cc1)C(=O)N[C@@H](CO)C(=O)OC  plasma concentration (male Swiss Albino mice, plasma; intraperitoneal, 10 mg/kg, 4 h): 0.0281 µg/mL
[2H]C([2H])([2H])C1(C([2H])([2H])[2H])NC(=O)N(c2ccc(F)c(C(F)(F)F)c2)C1=O  plasma concentration (male Swiss outbred mice, plasma; oral, 100 mg/kg, 1 h): 23.3 ± 2.79 µg/mL
CCCCCc1cc(O)c(C/C=C(\C)CCC=C(C)C)c(O)c1C(=O)O  plasma concentration (LC-MS/MS; Scn1a+/− mice, both sexes, plasma; intraperitoneal, 30 mg/kg, after hyperthermia protocol): 43 ± 3 µg/mL
